Values quoted from earlier work that unrelated publications cite.
Lines come from different studies, so protocols differ. Converted amounts (≈) assume the structure as drawn.
Organism: Escherichia coli

SMILES	read-out	method	strain	concentration	measurement	result
N=C(N)NCCC[C@H](NC(=O)[C@H](Cc1c[nH]c2ccccc12)NC(=O)[C@H](CCC(N)=O)NC(=O)[C@H](Cc1c[nH]c2ccccc12)NC(=O)[C@H](CCCNC(=N)N)NC(=O)[C@@H](N)CCCNC(=N)N)C(=O)NCCCC[C@H](NC(=O)[C@H](CCCNC(=N)N)NC(=O)[C@H](Cc1c[nH]c2ccccc12)NC(=O)[C@H](CCC(N)=O)NC(=O)[C@H](Cc1c[nH]c2ccccc12)NC(=O)[C@H](CCCNC(=N)N)NC(=O)[C@@H](N)CCCNC(=N)N)C(=O)NCCCCCC(N)=O			ATCC 11775		MBC	22 µM (≈ 48.3 µg/mL)
CCOc1ccc(NC(=S)N(CCO)Cc2cc3cc(C)cc(C)c3[nH]c2=O)cc1	cell growth				EC50	17 nM
Cc1[nH]c(C(=O)Nc2ccc(C(=O)NCC(=O)O)cc2OC(C)C)c(Cl)c1Cl			ATCC 25922		MIC	inactive
CSCC[C@H](NC(=O)[C@H](CCCNC(=N)N)NC(=O)[C@H](Cc1c[nH]c2ccccc12)NC(=O)[C@H](CCC(N)=O)NC(=O)[C@H](Cc1c[nH]c2ccccc12)NC(=O)[C@H](CCCNC(=N)N)NC(=O)[C@H](CCCNC(=N)N)NC(=O)[C@H](C)NC(=O)[C@H](CCCCN)NC(=O)[C@@H](N)Cc1ccccc1)C(=O)N[C@@H](CCCCN)C(=O)N[C@@H](CCCCN)C(=O)N[C@@H](CC(C)C)C(=O)NCC(=O)N[C@@H](C)C(=O)NCCCC[C@H](NC(=O)[C@H](C)NC(=O)CNC(=O)[C@H](CC(C)C)NC(=O)[C@H](CCCCN)NC(=O)[C@H](CCCCN)NC(=O)[C@H](CCSC)NC(=O)[C@H](CCCNC(=N)N)NC(=O)[C@H](Cc1c[nH]c2ccccc12)NC(=O)[C@H](CCC(N)=O)NC(=O)[C@H](Cc1c[nH]c2ccccc12)NC(=O)[C@H](CCCNC(=N)N)NC(=O)[C@H](CCCNC(=N)N)NC(=O)[C@H](C)NC(=O)[C@H](CCCCN)NC(=O)[C@@H](N)Cc1ccccc1)C(=O)NCCCCCC(N)=O			ATCC 11775		MBC	> 48 µM
Cc1cc(C#N)nc(N2CCN(S(=O)(=O)c3ccc(NC(=O)c4cc(CN5CC(CN)C5)ccc4N(C)S(C)(=O)=O)cc3)CC2)n1			25922		MIC	2 µg/mL
COc1ccc(-c2cc(-c3ccc([N+](=O)[O-])cc3)nc(OC)c2C#N)cc1					MIC	0.013 µM
N=C(N)NCCC[C@H](NC(=O)[C@H](Cc1c[nH]c2ccccc12)NC(=O)[C@H](CCC(N)=O)NC(=O)[C@H](Cc1c[nH]c2ccccc12)NC(=O)[C@H](CCCNC(=N)N)NC(=O)[C@@H](N)CCCNC(=N)N)C(=O)NCCCC[C@H](NC(=O)[C@H](CCCNC(=N)N)NC(=O)[C@H](Cc1c[nH]c2ccccc12)NC(=O)[C@H](CCC(N)=O)NC(=O)[C@H](Cc1c[nH]c2ccccc12)NC(=O)[C@H](CCCNC(=N)N)NC(=O)[C@@H](N)CCCNC(=N)N)C(=O)NCCCCCC(=O)N[C@@H](CSSC[C@H](NC(=O)CCCCCNC(=O)[C@H](CCCCNC(=O)[C@H](CCCNC(=N)N)NC(=O)[C@H](Cc1c[nH]c2ccccc12)NC(=O)[C@H](CCC(N)=O)NC(=O)[C@H](Cc1c[nH]c2ccccc12)NC(=O)[C@H](CCCNC(=N)N)NC(=O)[C@@H](N)CCCNC(=N)N)NC(=O)[C@H](CCCNC(=N)N)NC(=O)[C@H](Cc1c[nH]c2ccccc12)NC(=O)[C@H](CCC(N)=O)NC(=O)[C@H](Cc1c[nH]c2ccccc12)NC(=O)[C@H](CCCNC(=N)N)NC(=O)[C@@H](N)CCCNC(=N)N)C(N)=O)C(N)=O		broth microdilution	ATCC 11775		MIC	22 µM
COc1ccc(-c2cc(-c3ccc(C)cc3)nc(N)c2C#N)cc1				concentration not given	inhibition zone diameter	22 mm
N=C(N)c1ccc(-c2ccc(-c3ccco3)o2)cc1					MIC	16 µM
